# Measurements of several laboratories.
# Each numbered part is a random draw from the data of one study; scales do not carry over between parts. Changes are numbered by the printed parent chain.

# Set 1 — method: universal PBM; form: double-stranded DNA, one strand shown; matrix: in vitro; tested at: 600 nM; reading: higher = stronger binding
# Target: Sal-like protein 4, full length isoform A (SALL4, Homo sapiens, UniProt Q9UJQ4, residues 1-1053)
# Chain of UniProt Q9UJQ4 (whole entry, looked up): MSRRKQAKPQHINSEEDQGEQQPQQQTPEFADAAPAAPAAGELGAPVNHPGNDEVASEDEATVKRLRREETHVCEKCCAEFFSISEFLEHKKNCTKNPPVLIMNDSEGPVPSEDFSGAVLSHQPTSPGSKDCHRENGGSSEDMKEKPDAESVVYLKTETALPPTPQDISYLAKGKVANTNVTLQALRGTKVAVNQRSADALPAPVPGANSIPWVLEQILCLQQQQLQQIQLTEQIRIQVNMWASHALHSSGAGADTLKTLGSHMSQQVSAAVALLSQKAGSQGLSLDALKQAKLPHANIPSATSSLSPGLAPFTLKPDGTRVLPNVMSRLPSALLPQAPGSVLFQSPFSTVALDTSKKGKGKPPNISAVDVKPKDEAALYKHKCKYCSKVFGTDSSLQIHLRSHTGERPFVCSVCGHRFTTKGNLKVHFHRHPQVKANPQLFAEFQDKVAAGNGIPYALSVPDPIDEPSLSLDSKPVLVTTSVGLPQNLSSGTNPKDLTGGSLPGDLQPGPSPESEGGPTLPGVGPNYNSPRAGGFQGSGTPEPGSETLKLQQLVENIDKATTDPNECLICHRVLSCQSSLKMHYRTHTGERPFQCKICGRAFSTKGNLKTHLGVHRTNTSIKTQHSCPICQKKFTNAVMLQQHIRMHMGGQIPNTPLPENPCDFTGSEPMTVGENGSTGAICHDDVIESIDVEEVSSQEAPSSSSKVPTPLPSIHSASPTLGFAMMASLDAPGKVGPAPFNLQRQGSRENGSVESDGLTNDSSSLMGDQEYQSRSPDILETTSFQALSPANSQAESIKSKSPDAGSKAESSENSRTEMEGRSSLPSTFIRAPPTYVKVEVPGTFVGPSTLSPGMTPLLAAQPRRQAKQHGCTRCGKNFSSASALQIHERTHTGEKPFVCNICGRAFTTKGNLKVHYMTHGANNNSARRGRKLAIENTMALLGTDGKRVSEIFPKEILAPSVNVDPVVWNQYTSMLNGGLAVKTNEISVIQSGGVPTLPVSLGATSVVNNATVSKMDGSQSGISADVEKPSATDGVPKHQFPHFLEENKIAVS
# Setting: 8-mer, flanks averaged, mean of replicates
Oligonucleotide,E-score
AACCCTAA,0.0433
AGAACTGG,-0.152
CGGCGTCA,-0.227
GAGGGAAA,0.0376
CATTTAAG,0.21
AAGAGGTG,-0.0897
GCTGATTA,0.0907
ATCCTGGA,-0.0834
ACTTATGA,0.33
ATTCACTG,0.138
AACACAGA,0.0413
CTAGTCTC,-0.0743
TGCACTAA,0.141
CCAGTAAG,0.0248
CCTAAGCC,-0.33
CGCTAGAG,-0.207
CACCCTAA,-0.0879
CCGAATTC,-0.122
CACCTGGA,-0.156
CAGTACTC,0.0283
AAGGTTCG,-0.126
GCACGCAA,-0.256

# Set 2 — target: CCNB3, cyclin fold, Cln2 fusion (human); method: yeast growth competition, sequencing; matrix: yeast; setting: weak parent motif; reference: not given; reading: higher = stronger binding
# Starting sequence: WEE2 docking peptide (human); KELRQKLNFSYCE
Change,normalised enrichment score
KELRAKLNFSYCE [Q5A],0.0123
KALRQKLNFSYCE [E2A],0.327
KELRQKLNFAYCE [S10A],0.211
KEARQKLNFSYCE [L3A],0.136
KELRQKLAFSYCE [N8A],0.338
AELRQKLNFSYCE [K1A],-0.157
KELRQKLNFSYCA [E13A],0.226

# Set 3 — method: DHFR PCA, deep sequencing; matrix: yeast; added: (+)-ABA 0.39 µM; reference: wild-type fitted maximum; reading: higher = stronger binding
# Target: ABI1, truncated, D143A, DHFR fusion (Arabidopsis thaliana)
# Setting: methotrexate growth selection, single substitutions
# Starting sequence: PYL1, truncated, DHFR fusion (Arabidopsis thaliana); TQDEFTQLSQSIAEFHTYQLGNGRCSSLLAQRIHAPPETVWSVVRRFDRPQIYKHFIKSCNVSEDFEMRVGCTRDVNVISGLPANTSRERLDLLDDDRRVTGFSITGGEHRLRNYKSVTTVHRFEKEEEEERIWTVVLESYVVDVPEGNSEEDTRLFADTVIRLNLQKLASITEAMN; partner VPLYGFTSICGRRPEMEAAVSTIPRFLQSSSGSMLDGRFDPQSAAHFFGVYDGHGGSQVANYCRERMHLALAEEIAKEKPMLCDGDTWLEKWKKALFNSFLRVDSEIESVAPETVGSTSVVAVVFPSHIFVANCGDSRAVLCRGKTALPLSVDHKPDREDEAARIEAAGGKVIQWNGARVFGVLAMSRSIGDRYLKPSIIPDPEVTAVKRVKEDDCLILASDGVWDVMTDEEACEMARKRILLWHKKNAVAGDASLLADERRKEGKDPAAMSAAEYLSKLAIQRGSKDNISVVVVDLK
Change,relative binding score
I162C,15.9%
I79Y,34.8%
S140I,-19.3%
I12E,-5.68%
R69E,35.1%
R99V,-15%
A30P,-4.77%
T39L,62.4%
H55W,51.4%
R49D,2.01%
R132M,42.7%
D65Q,29.3%
E174K,3.23%
G81Y,-14.5%
V44S,-7.13%

# Set 4 — target: UBE2Q1 UBC core domain (UniProt Q7Z7E8); method: yeast two-hybrid; matrix: yeast; setting: mostly zero background; reference: not given; reading: higher = stronger interaction
# B1: NFX1 RING domain (UniProt Q12986); chain IEQLTTEKYECMVCCELVRVTAPVWSCQSCYHVFHLNCIKKWARSPASQADGQSGWRCPACQNVSAHVPNTY
# B2: RNF182 RING domain (UniProt Q8N6D2); chain AESQASDELECKICYNRYNLKQRKPKVLECCHRVCAKCLYKIIDFGDSPQGVIVCPFCRFETCLPDDEV
# B3: CNOT4 RING domain (UniProt O95628); chain MSRSPDAKEDPVECPLCMEPLEIDDINFFPCTCGYQICRFCWHRIRTDENGLCPACRKPYPED
# B4: RNF6 RING domain (UniProt Q9Y252); chain NSIDSELGKICSVCISDYVTGNKLRQLPCMHEFHIHCIDRWLSENCTCPICRQPVLGSNIAN
# B5: RNF186 RING domain (UniProt Q9NXI6); chain HSGSTECDLECLVCREPYSCPRLPKLLACQHAFCAICLKLLLCVQDNTWSITCPLCRKVTAVPGGLI
# B6: TRIM41 RING domain (UniProt Q8WV44); chain PVQTLQEEAVCAICLDYFTDPVSIGCGHNFCRVCVTQLWGGEDEEDRDELDREEEEEDGEEE
# B7: ZNRF4 RING domain (UniProt Q8WWF5); chain VRTFTWHNDLCAICLDEYEEGDQLKILPCSHTYHCKCIDPWFSQAPRRSCPVCKQSVAATEDSF
# B8: ARIH2 RING domain (UniProt O95376); chain HVPTSHPPHHCAVCMQFVRKENLLSLACQHQFCRSCWEQHCSVLVKDGVGVGVSCMAQDCPLRTPEDFVF
# B9: VPS8 RING domain (UniProt Q8N3P4); chain TRGLNPKQDYCSICLQQYKRRQEMADEIIVFSCGHLYHSFCLQNKECTVEFEGQTRWTCYKCSSSNKVGKLSE
# B10: MARCHF1 RING domain (UniProt Q8TCQ1); chain TAPRSQSRLSVCPSTQDICRICHCEGDEESPLITPCRCTGTLRFVHQSCLHQWIKSSDTRCCELCKYDFIMETKLKPLRKWE
# Target sequence (chain): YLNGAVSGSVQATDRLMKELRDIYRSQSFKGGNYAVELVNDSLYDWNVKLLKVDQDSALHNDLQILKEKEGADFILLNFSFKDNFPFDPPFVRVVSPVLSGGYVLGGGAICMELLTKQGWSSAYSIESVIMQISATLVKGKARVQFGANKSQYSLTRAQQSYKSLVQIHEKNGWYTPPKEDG
Sequence,lacZ reporter activity
B1 (NFX1 RING domain),0
B2 (RNF182 RING domain),0
B3 (CNOT4 RING domain),0
EIKEYKARLTCPCCNTRKKDAVLTKCFHVFCFECVRGRYEARQRKCPKCNAAFGAHDFHR (RNF40 RING domain (UniProt O75150)),0
B4 (RNF6 RING domain),0
B5 (RNF186 RING domain),0
B6 (TRIM41 RING domain),0
FAEQPSVKLCCQLCCSVFKDPVITTCGHTFCRRCALKSEKCPVDNVKLTVVVNNI (TRAF7 RING domain (UniProt Q6Q0C0)),0
B7 (ZNRF4 RING domain),0
B8 (ARIH2 RING domain),0
LVKDFNPYITCYICKGYLIKPTTVTECLHTFCKTCIVQHFEDSNDCPRCGNQVHETNPLE (PCGF5 RING domain (UniProt Q86SE9)),0
ASPKIFQKTKCSICNSALELPSVHFLCGHSFHQHCFESYSESDADCPTCLPENRKVMDMI (VPS11 RING domain (UniProt Q9H270)),0
B9 (VPS8 RING domain),0
B10 (MARCHF1 RING domain),0
DDVLTKDAGECVICLEELLQGDTIARLPCLCIYHKSCIDSWFEVNRSCPEHPAD (ZNRF1 RING domain (UniProt Q8ND25)),0

# Set 5 — method: RNA Bind-n-Seq; form: RNA; matrix: in vitro; tested at: not given; setting: RNA with constant flanks, ends assumed; reference: input RNA pool; reading: higher = stronger binding
# Target: RING finger protein unkempt homolog, zinc fingers 1-6, GST-SBP tag (UNK, Homo sapiens, UniProt Q9C0B0, residues 30-357)
# Constant ends, left off below: GGGAGUUCUACAGUCCGACGAUC … CAACAGAGGAUUGAGCAUCA
# Target sequence (chain): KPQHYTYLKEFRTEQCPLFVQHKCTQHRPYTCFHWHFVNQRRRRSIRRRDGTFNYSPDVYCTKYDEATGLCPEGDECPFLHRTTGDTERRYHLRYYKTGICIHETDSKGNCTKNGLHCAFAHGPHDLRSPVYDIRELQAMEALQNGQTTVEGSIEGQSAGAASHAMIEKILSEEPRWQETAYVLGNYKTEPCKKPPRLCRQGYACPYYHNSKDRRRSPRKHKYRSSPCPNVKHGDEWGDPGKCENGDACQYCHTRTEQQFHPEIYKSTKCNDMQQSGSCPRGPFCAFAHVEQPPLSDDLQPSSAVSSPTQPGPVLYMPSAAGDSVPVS
Oligonucleotide,bound/input enrichment [ratio]
AUUGAACAGCACUAUUUUGAAGAUCGUGGUAAAGGCAGGCUGUCAUAGAGUUAUGUGUCCGUCUCAGGAGUCUUAACUUUUGAAAUAUGUUUUACUUGAAUGUUACAUUAGAUAUUGGUG,3.12
GAUAAGAAAAGCUUGUUGGAGACCCGCUUGCAUGUCACUGGUAGAGACCUGAGGUGUCAAACCGCUGAAACUUUCGGAUUUCAAGAAAAUUACAUCAAGAUCGUAAUAAAUAAGAAACAG,0.218
AUGUGCAAGGAAAUUAUUCCAACUAGUGAAUUUAUUAACAGUAAGUUAACAGCAAAAGCAAACCGGCAACUUCAAGAUCCUUUAGUAAUCAUGACAGGAAACAUCCCAACAUGGCUUACU,0.803
GGCUUUAUUUUGUGCCAUGGGAUCCUAAAUACUGACGCUACAGCACUGAACCUUUGGAAACCCGCUCUUCAAAGUAGCUCUUGCCUCUCUCUCUUUCGGGAUGAAGUUUUCCACAUUCAC,0.125
GUGAUGUCUUCCAGACUCGGUGCAGUCACCGCCGUGAGUUUCUUGGUGUGACCAUUAUACUUCCGAAAUAGAACUGUCGAGCUGAGAACACGCGGUCCUUUGCUUUUGUUUUGUACUCAG,0.2
UUGGUCAUAUCAAACAUUAAAAAUGACCACUCUUUUAAUUGAAAUUAACUUUUAAAUGUUUACCGGAGUAUGUGCUGUGAAGUGAUCUAAAAUUUGUAAUAUUUUUGUCAUGAACUGUAC,0.237
UUUCUUCCACCUACCACCGUGGCUGGUGCCACUCUUUACUCAGUGGCAAUGUACGGUGGAUCCGUUCUUUUCAGCAUGUUCCUUCUGUAUGAUACCCAGAAAGUAAUCAAGCGUGCAGAA,0.1
AGACAUUUUAAGGACCUCAGGUUCAUUAAAAAGGACUUAGAACUUUUCUCAAAUCCAUUCCGCUUUAAACCGGAAUAUGCGCCUAUUUCUGUAAGAGUGGAGCUAACAAAACUUCAGGCC,0.133
UAUGGUGCACUUUUUUCGCUAUUUAAGUUGGAUAUUUCUCUACAUUCCUGAAACAAUUUUCCGGUUUUUUUUGUACUAGAAAAUGCAGGCAGUGUUUUCACAAAAGUAACUGUACAGUGA,0.128
AUUUAUCUGUAUGAAAUUCCAGCAGUUAAUUUGAACGUUUAUGUAUAGGAUGUUUGUAUUCUCCGGUCUUUACUACAGUGUUUCUACCUCUCAUUUGUAACUGCAUUAUCUUCAAAAUAG,1.24
UGUGAAAUCAGUAGGUUAUCUUUAAUCUUUACACUACAUGCAGAUCCAUAGUAUCCUUUGCCGUGUUGUAAAUACUUUUGCUUUGAAAACUUUUUCAUUGUCCUAAAUCACCCUGACUCU,0.471

# Excerpt of the above (set 2):
Change,normalised enrichment score
KELRAKLNFSYCE [Q5A],0.0123
KALRQKLNFSYCE [E2A],0.327
KELRQKLNFAYCE [S10A],0.211
KEARQKLNFSYCE [L3A],0.136
KELRQKLAFSYCE [N8A],0.338
AELRQKLNFSYCE [K1A],-0.157
KELRQKLNFSYCA [E13A],0.226
